Measured values gathered from unrelated publications.
Numbered parts are unrelated; each lists some results of a single study.

Set 1
Target: Histone acetyltransferase KAT6A, winged helix 2, GST fusion (KAT6A, Homo sapiens, UniProt Q92794, residues 85-181)
Technique: protein binding microarray
Form: double-stranded DNA, one strand shown
Matrix: in vitro
Concentration: not given
Notes: 8-mer, flanks averaged, mean of 2 arrays, mostly near background
Reference: not given
Direction: higher = stronger binding
Target sequence (chain): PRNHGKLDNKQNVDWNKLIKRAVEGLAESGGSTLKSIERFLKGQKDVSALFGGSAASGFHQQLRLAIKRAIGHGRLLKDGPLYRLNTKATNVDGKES
The E-score of `AGCAAAAG` is reported as -0.0158.
With `AACCGCGC` the E-score was -0.0297.
The E-score of `CATCCCCC` is reported as -0.162.
For `ATGATCAG`, the E-score was -0.0112.
The E-score of `AAATCCTG` is reported as 0.111.
`CCGCCAAC` has an E-score of 0.135.
`AGCTACAA` has an E-score of -0.148.
For `TATGAAAA`, the E-score was -0.0205.
The E-score of `TAGGCTGA` is reported as -0.0602.
The E-score of `GTTCTAGA` is reported as -0.0257.
`ATACGCAT` has an E-score of 0.03.
With `AAGGTGTG` the E-score was -0.0556.
With `AGCAAACC` the E-score was 0.15.
`ACCGAGCA` has an E-score of 0.187.
For `CGTCCTGA`, the E-score was -0.0832.
`CGTGAGTA` has an E-score of -0.0086.
`CTCATGTA` has an E-score of 0.0358.
`CGGTCGTC` has an E-score of -0.0612.
`ACGCGCCA` has an E-score of -0.00916.

Set 2
Target: Ras GTPase-activating protein-binding protein 1, RRM domain (G3BP1, Homo sapiens, UniProt Q13283)
UniProt Q13283, sequence (whole entry, looked up): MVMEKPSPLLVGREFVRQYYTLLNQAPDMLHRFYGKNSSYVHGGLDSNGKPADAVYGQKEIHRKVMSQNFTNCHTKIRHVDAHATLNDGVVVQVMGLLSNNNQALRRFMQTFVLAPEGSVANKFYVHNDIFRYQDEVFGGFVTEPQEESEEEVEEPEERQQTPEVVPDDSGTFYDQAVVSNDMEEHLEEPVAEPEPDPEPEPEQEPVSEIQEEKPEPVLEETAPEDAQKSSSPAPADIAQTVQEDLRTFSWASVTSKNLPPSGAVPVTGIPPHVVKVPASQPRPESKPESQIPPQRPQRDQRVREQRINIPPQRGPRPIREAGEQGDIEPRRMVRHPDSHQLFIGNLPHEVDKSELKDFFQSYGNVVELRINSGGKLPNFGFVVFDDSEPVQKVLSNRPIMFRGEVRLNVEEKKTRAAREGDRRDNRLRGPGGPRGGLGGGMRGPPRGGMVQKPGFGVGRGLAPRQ
Technique: RNA Bind-n-Seq
Form: RNA
Matrix: in vitro
Concentration: 1 µM
Notes: whole 134-nt RNA, ends assumed
With: 150 mM KCl
Reference: input library
Direction: higher = stronger binding
Constant ends, left off below: GGGAGUUCUACAGUCCGACGAUC … UGGAAUUCUCGGGUGUCAAGG
With `UAACUUUAGAGGAGGAUCUGAUGGAUAUGGCAGUGUACGUGGAUUUGGGGAUGGCUAUAAUGGGUAUGGAGGAGGACCUGGAGGUGGCAA` the log2 enrichment was -0.599.
`CAAGUCCUGUGCUACACAUCGUAUGUACCGAAUCGGGAAAGGGGAAAGGGAAAGGAAAGUAUUAUGUUACGCCGUUCGGAUCUGCACUUC` gave a log2 enrichment of -0.205.
For `CUCAAGUCCUGUGCUACACAUCGUAUGUACCGAAUCGGUUGGGUUGGGGUUGGGAAAGUAUUAUGUUACGCCGUUCGGAUCUGCACUUCC`, the log2 enrichment was 0.137.
`UCAAGUCCUGUGCUACACAUCGUAUGUACCGAAUCGGCCCCGGCCCCGGCCCCGGAAAGUAUUAUGUUACGCCGUUCGGAUCUGCACUUC` has a log2 enrichment of -1.41.
`CUCAAGUCCUGUGCUACACAUCGUAUGUACCGAAUCGGUGGUGGUUUUUUUGGAAAGUAUUAUGUUACGCCGUUCGGAUCUGCACUUCCA` gave a log2 enrichment of -0.189.
With `CAAGUCCUGUGCUACACAUCGUAUGUACCGAAUCGGGAGGGUUUGGGUUUUUGGGAAAGUAUUAUGUUACGCCGUUCGGAUCUGCACUUC` the log2 enrichment was 0.639.
For `UGGGAGGUGGAUUUUGUUUAUUUUUUUAGCUCAUUUCCAGGGGUGGGGAUUUUUUUUUAAUAUGUGUCAUGAAUAAAGUUGUUUUUGAAA`, the log2 enrichment was 1.4.
`UAACUUUAGAGGGGGAUCUGAUGGAUAUGGCAGUGGACGUGGAUUUGGGGAUGGCUAUAAUGGGUAUGGAGGAGGACCUGGAGGUGGCAA` gave a log2 enrichment of -0.539.
`AAGUCCUGUGCUACACAUCGUAUGUACCGAAUCGGGGAGGGGUGGGGAAAAAGGGGAAAGUAUUAUGUUACGCCGUUCGGAUCUGCACUU` gave a log2 enrichment of 0.817.

Set 3
Target: RNA binding protein fox-1 homolog 2, RRM domain, GST-SBP tag (RBFOX2, Homo sapiens, UniProt O43251-10, residues 100-194)
Technique: RNA Bind-n-Seq
Form: RNA
Matrix: in vitro
Concentration: 365 nM
Notes: natural RNA segment, single round, ends assumed
Reference: no-protein control
Direction: higher = stronger binding
Constant ends, left off below: GGGAGUUCUACAGUCCGACGAUC … UGGAAUUCUCGGGUGCCAA
Target sequence (chain): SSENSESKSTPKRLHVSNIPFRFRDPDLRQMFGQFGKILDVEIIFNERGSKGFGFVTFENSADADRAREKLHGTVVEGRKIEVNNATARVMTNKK
`UUCCCACUGAGCCUGUGCUUGCAUGACUACAUUGAGGAGAGAGAUGGUACCGGGGGUGGGGCUGUCACAACUGAAAACCCUCCAGCUGGAAUGGACAAUGUGCCCCCAAC` — result for “RBNS enrichment (R)”: 2.99.
`CAAGAUAGAGGCAGACCUGACUGUUUCUUGAGGGUCCAUCAGGCAUCUCCAGGAGCUGGCCAGUUAUCUUAGAAAACAACUGAAUGGAAUAUUUUUGUACCUGAUGUUUC`: “RBNS enrichment (R)” 0.391.
For `CUCCAUGGUGUCUGCAUAGAGCCACGACAGAGGCAUUCCUCAGCUGUACCUCUGACUUUCUUGGCUCAGGUUCAGUCAGUUGCUCUUCCUCCUUGGCAAAGCCAUCUAGG`, “RBNS enrichment (R)” read 0.344.
`AAUCAAAAAUAUUUUUGUGAGGGAGUCGGUCCCAGGCAGUUUGAUGCUCUGUGGAAGGAGGCGGGAAGGGAACGUUGGCCAAGUCAGUUACUGAGAUGAAGAUCGCCCAG` — result for “RBNS enrichment (R)”: 0.567.
Under “RBNS enrichment (R)”, `CUCUCUCUGCUCCUCACCCCCACCCCUGUACCCAGCCACCUUCCUGACUGGGAAGGACAUAAAAGGUUUAAUGUCAGGGUCAAACUACAUUGAGCCCCUGAGGACAGGGG` is recorded as 0.204.
Under “RBNS enrichment (R)”, `UGUGUUCUGUGCUUCAGGCUCUGGAUCAUCACCCCCGCUGCUCUCCCAUUCCGGUACCUAAGUAACAUCUAUGCAAAGAAACACAUUAAAAGCAGCAAUAAAACUGCUCC` is recorded as 0.275.
`UGCUUUUGCAGUUAUUGGGGGGGGUCACAUAUUUCUGGUGUCUUUGACCUGGAAAAAUAAAGUAAUUAAAAAGAAAGAGCUUGCUUCUAAGUUGCUAGUAUCAUUGGGUG` — result for “RBNS enrichment (R)”: 0.878.
For `UGAACAUUCUAAGUUGUACUGUUCUUAACAGACAUGAAAGAUCUCAGGUAAAUAAAAAAAAUUUUAAAUAUAGAUCACAAAAUUAAAAAGUAUGUGAAGAAAUAUGAUGG`, “RBNS enrichment (R)” read 0.589.

Set 4
Target: Sal-like protein 4, full length isoform A (SALL4, Homo sapiens, UniProt Q9UJQ4, residues 1-1053)
UniProt Q9UJQ4, sequence (whole entry, looked up): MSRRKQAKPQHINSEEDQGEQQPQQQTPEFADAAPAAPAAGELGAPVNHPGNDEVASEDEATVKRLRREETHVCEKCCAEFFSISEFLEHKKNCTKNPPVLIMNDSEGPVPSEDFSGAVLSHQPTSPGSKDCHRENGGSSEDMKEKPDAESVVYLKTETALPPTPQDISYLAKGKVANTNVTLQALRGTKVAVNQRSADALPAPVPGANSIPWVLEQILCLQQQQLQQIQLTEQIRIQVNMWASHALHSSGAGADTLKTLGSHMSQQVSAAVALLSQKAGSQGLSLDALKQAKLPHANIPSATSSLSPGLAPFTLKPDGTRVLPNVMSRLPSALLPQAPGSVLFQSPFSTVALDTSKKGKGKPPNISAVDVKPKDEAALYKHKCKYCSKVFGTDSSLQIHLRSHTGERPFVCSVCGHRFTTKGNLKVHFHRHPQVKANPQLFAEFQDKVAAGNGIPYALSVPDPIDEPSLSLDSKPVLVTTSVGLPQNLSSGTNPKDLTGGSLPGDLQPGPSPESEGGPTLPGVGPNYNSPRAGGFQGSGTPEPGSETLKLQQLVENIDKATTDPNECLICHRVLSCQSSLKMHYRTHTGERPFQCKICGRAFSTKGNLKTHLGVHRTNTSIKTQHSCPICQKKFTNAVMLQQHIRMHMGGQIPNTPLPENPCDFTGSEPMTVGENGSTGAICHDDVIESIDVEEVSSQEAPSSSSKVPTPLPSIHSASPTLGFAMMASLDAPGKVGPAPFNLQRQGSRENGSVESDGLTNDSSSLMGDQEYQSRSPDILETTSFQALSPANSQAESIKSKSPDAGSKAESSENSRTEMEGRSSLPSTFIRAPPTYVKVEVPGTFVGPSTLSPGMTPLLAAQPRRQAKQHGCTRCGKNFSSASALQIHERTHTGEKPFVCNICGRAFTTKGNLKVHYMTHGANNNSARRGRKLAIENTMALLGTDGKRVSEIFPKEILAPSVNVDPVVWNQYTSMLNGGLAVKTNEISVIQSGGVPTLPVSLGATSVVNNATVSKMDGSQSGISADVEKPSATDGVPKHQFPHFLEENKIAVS
Technique: universal PBM
Form: double-stranded DNA, one strand shown
Matrix: in vitro
Concentration: 600 nM
Notes: 8-mer, flanks averaged, mean of replicates
Direction: higher = stronger binding
`CCCTCTTC` gave an E-score of -0.119.
For `CGCTAATC`, the E-score was -0.059.
`CCGTGCTA` gave an E-score of -0.153.
The E-score of `GTAGTCAC` is reported as -0.158.
With `CAGACAGG` the E-score was -0.218.
`CGGTGCCC` has an E-score of -0.408.
With `AGCTATCA` the E-score was 0.174.
For `CGTATTCC`, the E-score was 0.0607.
For `AGCTTGAA`, the E-score was 0.0822.
With `AGGACAGG` the E-score was -0.289.
For `GAGGCCGA`, the E-score was -0.318.
`GCTTCTGA` has an E-score of 0.00639.
The E-score of `AGTGTCTC` is reported as -0.236.
`CTGCCTCC` has an E-score of -0.239.
`AGGACATG` gave an E-score of -0.0306.
With `AGCACTAC` the E-score was -0.0102.
`CTTTAAGC` gave an E-score of 0.0326.
For `CGTAGGCA`, the E-score was -0.14.
With `AGACATGG` the E-score was 0.15.
For `AACACTAC`, the E-score was 0.148.

Set 5
Target: RING finger protein unkempt homolog, zinc fingers 1-6, GST-SBP tag (UNK, Homo sapiens, UniProt Q9C0B0, residues 30-357)
UniProt Q9C0B0, sequence (30-357, looked up): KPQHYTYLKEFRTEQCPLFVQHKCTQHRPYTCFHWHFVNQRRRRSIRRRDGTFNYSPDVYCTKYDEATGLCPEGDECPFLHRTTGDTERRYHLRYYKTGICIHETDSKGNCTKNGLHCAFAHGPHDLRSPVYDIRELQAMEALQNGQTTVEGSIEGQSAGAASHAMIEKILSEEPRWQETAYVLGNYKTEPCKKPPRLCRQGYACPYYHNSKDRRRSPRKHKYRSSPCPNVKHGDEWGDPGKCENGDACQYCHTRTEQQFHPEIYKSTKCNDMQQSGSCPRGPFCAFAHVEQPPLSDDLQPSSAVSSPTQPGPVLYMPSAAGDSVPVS
Technique: RNA Bind-n-Seq
Form: RNA
Matrix: in vitro
Concentration: not given
Notes: RNA with constant flanks, human-mouse chimeric sites, ends assumed
Reference: input RNA pool
Direction: higher = stronger binding
Constant ends, left off below: GGGAGUUCUACAGUCCGACGAUC … CAACAGAGGAUUGAGCAUCA
`GAGUCGAUUAUGGAAACAACAAUUCGUUAUCUUGCAGCCUCAGUGUUCACUUGCUUGGCGAUAGCAUAUUGGGAUUUUAGGUUCUGGAAGGAGAACUGACGAUGAUGCUGCCGCUGCUGC` gave a bound/input enrichment of 0.448 ratio.
`CUGUGACUGAUGGCAGCUACCUGAGUGGCAGCUGAAGUUGACUCCCUCCCCUUCCCUGAACCCCCCCCCACUGCCCCCCCAUCCCCCAGUGUCGGCUGAGAUGUUGCCUCUGCACGGUUC` gave a bound/input enrichment of 1.32 ratio.
`AAAGAACCUCUCUCUGAUGAAGAUGAGGAAGACAAUGAUGAUGUUGAACCCAUUUCUGAAUUUCGAUUUGUGCCCAGUGAUAAAUCAGCAUUGGAGGCGAUGUUCACUGCAAUGUGCGAG` has a bound/input enrichment of 0.204 ratio.
The bound/input enrichment of `GACUUUGGAACUGGUCCUCGCAACGCAGCCUUCUAUAGCCCUCAUGGACAUAUAUUAGUGCUGGCUGGAUUUGGAAAUCUGAGGGGACAAAUGGAAGUAUGGGAUGUUAAAAACUACAAG` is reported as 0.364 ratio.
For `GGGACUGAUUCAUCCCAAGGACAGGCCACCCCAUUUGAUGCCUGGACUGAUGACAGUAUGUUAGGGCCUAGUCAAAAUUUUGAAGCUGAGUCAAUUCAGGAUGCCAUGAGUAUGGAAGAG`, the bound/input enrichment was 1.07 ratio.
The bound/input enrichment of `GCCACCAGAUCCCAGAAACAUGACCCUUGCUGCCUACAAGGAGAAGAUGAAGGAGCUCCCGCUGGUGUCUCUGUUCUGCUCCUGCUUCCUGGCCGAUCCCCUGAAUAAGUCGUCCUACAA` is reported as 0.186 ratio.
The bound/input enrichment of `GAACCUGCUCUCUCUGAUGAAGAUGAGGAAGACAAUGAUGAUGUUGAACCCAUUUCUGAAUUUCGAUUUGUGCCCAGUGAUAAGUCAGCAUUGGAGGCGAUGUUCACAGCAAUGUGUGAG` is reported as 0.288 ratio.
`CUGAGGAUACCACUGAAAGAGACAUUAAAGAAUCAUUUGAGGGCUCUGUUCGUGCAAGAAUAGUCACUGAUCGGGAAACUGGUUCUUCCAAAGGGUUUUGGUUUUGUGACUUUAAUAGUG` has a bound/input enrichment of 0.425 ratio.

Repeated from above (set 1):
`CTCATGTA` has an E-score of 0.0358.
`ACGCGCCA` has an E-score of -0.00916.
The E-score of `GTTCTAGA` is reported as -0.0257.
The E-score of `AGCAAAAG` is reported as -0.0158.
With `AGCAAACC` the E-score was 0.15.
